# Measured values from different studies.
# Protocols differ between the studies behind these lines. “And” joins repeats or separate records; there may be more than shown.
SMILES,test,system,setting,how to read,measurement,value
CN1CCN(S(=O)(=O)c2cc([N+](=O)[O-])ccc2N(CCOS(C)(=O)=O)CCOS(C)(=O)=O)CC1,,"NSG mice female, plasma","intraperitoneal, 25 mg/kg, 0.5 h",,concentration,1.94 µM
C=CC(=O)Nc1cc(Nc2nccc(Nc3cc(Cl)c(F)cc3C(C)(C)O)n2)c(OC)cc1N1CC[C@@H](N(C)C)C1,,human,"oral, dose not given, phase I clinical",,patients with adverse event Hypokalaemia,12.7%
COc1cccc(Oc2ccccc2NC(=O)CNC(=O)c2cccc3ccccc23)c1,,"esterase-deficient SCID mice, male, blood","oral, 100 mg/kg/day, 14 days, toxicity study",reference: white cells,lymphocytes,24% and 18.8% and 27.2%
CCN1[C@@H](C(=O)NC23CCC(C(=O)O)(CC2)CC3)[C@H](c2cccc(Cl)c2F)[C@]2(C(=O)Nc3cc(Cl)ccc32)C12CCCCC2,,patients with advanced solid tumours,200 mg,,oral mucositis incidence,0%
C[C@]1(O)C[C@@](N)(c2ccc(-c3nc4n(c3-c3ccccc3)COc3ccncc3-4)cc2)C1,,"human, advanced or metastatic solid tumours","28 mg intermittent, phase I dose escalation",,patients with Anemia TEAE,0%
CC[C@H](C)[C@H](NC(=O)[C@H](Cc1ccccc1)NC(=O)[C@H](CCC(=O)O)NC(=O)[C@H](CCCNC(=N)N)NC(=O)[C@H](C)NC(=O)[C@H](C)NC(=O)[C@H](CCC(N)=O)NC(=O)[C@H](CCC(=O)O)NC(=O)[C@H](CCC(=O)O)NC(=O)[C@H](CC(C)C)NC(=O)[C@H](Cc1ccc(O)cc1)NC(=O)[C@H](CO)NC(=O)[C@H](CO)NC(=O)[C@@H](NC(=O)[C@H](CC(=O)O)NC(=O)[C@H](CO)NC(=O)[C@@H](NC(=O)[C@H](Cc1ccccc1)NC(=O)[C@@H](NC(=O)CNC(=O)[C@H](CCC(=O)O)NC(=O)[C@H](C)NC(=O)CCc1cnc[nH]1)[C@@H](C)O)[C@@H](C)O)C(C)C)C(=O)N[C@@H](C)C(=O)N[C@@H](Cc1c[nH]c2ccccc12)C(=O)N[C@@H](CC(C)C)C(=O)N[C@H](C(=O)N[C@@H](CCCNC(=N)N)C(=O)NCC(=O)N[C@@H](CCCNC(=N)N)C(=O)N[C@@H](CCCCNC(=O)COCCOCCNC(=O)COCCOCCNC(=O)CC[C@H](NC(=O)CCCCCCCCCCCCCCCCC(=O)O)C(=O)O)C(=O)NCC(=O)NCC(=O)N[C@@H](CO)C(=O)N[C@@H](CCSC)C(=O)N[C@H](C(=O)N[C@@H](CCCCNc1c(NCCCCCN(O)C(=O)CCC(=O)NCCCCCN(O)C(=O)CCC(=O)NCCCCCN(O)C(C)=O)c(=O)c1=O)C(=O)O)C(C)C)C(C)C [zirconium-89 labelled],ex vivo gamma counting,"male Sprague-Dawley rats, bone marrow","intravenous, 1 nmol, 72 h, mean of 3 animals",,tissue uptake,0.39 %ID/g
Cn1ncc(-c2nc(N[C@H]3CC[C@H](N)CC3)ncc2Cl)c1CC1CC1,phase I dose escalation,human patients,"dose not given, treatment-related grade 3 or higher",,related adverse event incidence,19.4%
COc1ccc(-c2c(-c3ccc(C#N)c(F)c3)nc(N3CCC(N)CC3)n(C)c2=O)cc1F,item: Anemia,relapsed/refractory marginal zone lymphoma patients,"oral, 60 mg, grade 3 to 4, dose expansion",,treatment-related adverse event incidence,0%
COc1cc2c(Oc3ccc4[nH]c(C)cc4c3F)ccnc2cc1OCC1(N)CC1,,"sarcoma, recurrent or refractory, high-risk, paediatric","concentration not given, grade 3, whole group",,mouth ulcer incidence,0%
CO[C@H]1C[C@@H]2CC[C@@H](C)[C@@](O)(O2)C(=O)C(=O)N2CCCC[C@H]2C(=O)O[C@H]([C@H](C)C[C@@H]2CC[C@@H](OC(=O)NCCOCCOCCOCCOCCOCCOCCOCCOCCC(=O)N3CCc4cc(Cn5nc(-c6ccc7oc(N)nc7c6)c6c(N)ncnc65)ccc4C3)[C@H](OC)C2)C[C@@H](O)[C@H](C)/C=C(\C)[C@@H](O)[C@@H](OC)C(=O)[C@H](C)C[C@H](C)/C=C/C=C/C=C/1C,"phase 1 dose escalation, item: fatigue",advanced solid tumour patients,"intravenous, 10 mg weekly, any grade",,dose-reducing adverse events,0%
COc1cccc([C@]2(C)CCN(C[C@@H](NC(=O)[C@H]3Cc4ccc(O)cc4CN3)C(C)C)C[C@@H]2C)c1,,"rat, brain","intraperitoneal, 5 mg/kg",,AUCtotal,1850 ng·h/g
O=C1Nc2cc3[nH]nc(-c4ccncc4)c3cc2CN1Cc1ccccc1,CTCAE v4.03,advanced solid tumour patients,"intravenous, 0.9 mg/kg, schedules 1/2",,patients with cough,0%
Cc1ccc(F)c2cc(C(=O)N[C@@H]3CCC[C@H](N4CC[C@H](N(C)S(C)(=O)=O)C4)C3)[nH]c12,,"CD1 mouse, plasma","oral, 30 mg/kg, 7 h",,plasma concentration,0.072 µg/mL
CN[C@@H](C)C(=O)N[C@H]1CN(S(=O)(=O)c2cccc(S(=O)(=O)N3CC[C@H]4CC[C@@H](C(=O)NC(c5ccccc5)c5ccccc5)N4C(=O)[C@@H](NC(=O)[C@H](C)NC)C3)c2)CC[C@H]2CC[C@@H](C(=O)NC(c3ccccc3)c3ccccc3)N2C1=O,,patients with advanced solid tumours,"4 mg, phase I monotherapy",,treatment-related ALT elevation incidence,0%
C[C@]1(CO)Cc2ncn(-c3ccc(C#N)c(Cl)c3)c2C(=O)O1,,healthy European subjects,"dose not given, single dose, all doses",,drug-related headache,2.1%
C[C@@H](NC(=O)N1C(=O)[C@H](Cc2ccnc(N)c2)[C@H]1C(=O)O)C1CCCCC1,,healthy adult Chinese volunteers,"continuous intravenous infusion, 2.25 mg/kg/h, 5-day infusion, CTCAE 5.0 grading",,incidence of drug-related AEs,25%
C[C@H]1COCCN1c1nc(NCc2cccnc2C(F)(F)F)c2cccnc2n1,,BALB/c mice,"intravenous, 5 mg/kg",,Vss,0.317 L/kg
O=S(=O)(Nc1ccccc1)c1ccc(NC(=S)Nc2ccccc2)cc1,,"mouse, male, lung","oral, 80 mg/kg daily, 14 days",reference: body weight,relative organ weight,0.74%
C=CCNc1c(O)cc2c(O)c1C[C@@H](C)C[C@H](OC)[C@H](O)[C@@H](C)/C=C(\C)[C@H](OC(N)=O)[C@@H](OC)/C=C\C=C(/C)C(=O)N2,,"unresectable or metastatic STS, GIST, other","intravenous, 300 mg/m^2",,patients with nausea TEAE,0%
NCCCC[C@@H]1NC(=O)[C@@H](Cc2c[nH]c3ccccc23)NC(=O)[C@H](c2ccccc2)NC(=O)[C@@H]2C[C@@H](OC(=O)NCCN)CN2C(=O)[C@H](Cc2ccccc2)NC(=O)[C@H](Cc2ccc(OCc3ccccc3)cc2)NC1=O,,healthy human volunteers,1950 µg twice daily,,subjects with adverse event Dizziness,21%
O=C(c1ccc(F)c(F)c1Nc1ccc(I)cc1F)N1CC(O)([C@@H]2CCCCN2)C1,,patients aged 2 to 6 years,"oral, dose not given",,AE leading dose modification,30%
COc1ccnc(C(=O)N[C@H]2COC(=O)[C@H](Cc3ccccc3)[C@@H](OC(=O)C(C)C)[C@H](C)OC2=O)c1OCOC(=O)C(C)C,,"rabbit, both sexes","from urine, rinse, air",,oral absorption,42%
CN1CC[C@@H](c2c(O)cc(O)c3c(=O)cc(-c4ccc(C(F)(F)F)cc4Cl)oc23)[C@@H]1CO,item: Chills,AML,"oral, 100 mg, intermittent dosing",,patients with adverse event,0%
N=C(N)NCCC[C@@H](NC(=O)[C@@H](N)Cc1ccccc1)C(=O)N[C@@H](Cc1ccccc1)C(=O)N[C@@H](CCCCN)C(N)=O,LC-MS,human,"15 mg, 23.83 h",,mean amount excreted in urine,333000 ng
CC(C)CC(=O)OC[C@H]1O[C@@](C#N)(c2ccc3c(N)ncnn23)[C@H](O)[C@@H]1O,plasma protein binding,human plasma,"0.9 µM, time not given",,recovery,102%
CCN1CCN(Cc2ccc(Nc3ncc(F)c(-c4cc(F)c5nc6n(c5c4)[C@H](C)CCC6)n3)nc2)CC1,Phase Ia dose escalation,patients with advanced solid tumours,"dose not given, monotherapy, grade ≥3",,blood creatinine increased incidence,4.2%
CCS(=O)(=O)Nc1ccc(Oc2ccc(F)cc2F)c(-c2cn(C)c(=O)c3[nH]ccc23)c1,parainfluenza infection leading to discontinuation,"human, relapsed/refractory AML","oral, dose not given",,treatment-emergent adverse events,0%
O=C(Nc1ccccc1)C1CCN(C(=O)Oc2cccnc2)CC1,,healthy women,"oral, 100 mg, 9 days",,adverse event Agitation,0%

# For quick reference, copied from above:
SMILES,test,system,setting,how to read,measurement,value
COc1cccc(Oc2ccccc2NC(=O)CNC(=O)c2cccc3ccccc23)c1,,"esterase-deficient SCID mice, male, blood","oral, 100 mg/kg/day, 14 days, toxicity study",reference: white cells,lymphocytes,24% and 18.8% and 27.2%
O=C(Nc1ccccc1)C1CCN(C(=O)Oc2cccnc2)CC1,,healthy women,"oral, 100 mg, 9 days",,adverse event Agitation,0%
CCN1CCN(Cc2ccc(Nc3ncc(F)c(-c4cc(F)c5nc6n(c5c4)[C@H](C)CCC6)n3)nc2)CC1,Phase Ia dose escalation,patients with advanced solid tumours,"dose not given, monotherapy, grade ≥3",,blood creatinine increased incidence,4.2%
CC[C@H](C)[C@H](NC(=O)[C@H](Cc1ccccc1)NC(=O)[C@H](CCC(=O)O)NC(=O)[C@H](CCCNC(=N)N)NC(=O)[C@H](C)NC(=O)[C@H](C)NC(=O)[C@H](CCC(N)=O)NC(=O)[C@H](CCC(=O)O)NC(=O)[C@H](CCC(=O)O)NC(=O)[C@H](CC(C)C)NC(=O)[C@H](Cc1ccc(O)cc1)NC(=O)[C@H](CO)NC(=O)[C@H](CO)NC(=O)[C@@H](NC(=O)[C@H](CC(=O)O)NC(=O)[C@H](CO)NC(=O)[C@@H](NC(=O)[C@H](Cc1ccccc1)NC(=O)[C@@H](NC(=O)CNC(=O)[C@H](CCC(=O)O)NC(=O)[C@H](C)NC(=O)CCc1cnc[nH]1)[C@@H](C)O)[C@@H](C)O)C(C)C)C(=O)N[C@@H](C)C(=O)N[C@@H](Cc1c[nH]c2ccccc12)C(=O)N[C@@H](CC(C)C)C(=O)N[C@H](C(=O)N[C@@H](CCCNC(=N)N)C(=O)NCC(=O)N[C@@H](CCCNC(=N)N)C(=O)N[C@@H](CCCCNC(=O)COCCOCCNC(=O)COCCOCCNC(=O)CC[C@H](NC(=O)CCCCCCCCCCCCCCCCC(=O)O)C(=O)O)C(=O)NCC(=O)NCC(=O)N[C@@H](CO)C(=O)N[C@@H](CCSC)C(=O)N[C@H](C(=O)N[C@@H](CCCCNc1c(NCCCCCN(O)C(=O)CCC(=O)NCCCCCN(O)C(=O)CCC(=O)NCCCCCN(O)C(C)=O)c(=O)c1=O)C(=O)O)C(C)C)C(C)C [zirconium-89 labelled],ex vivo gamma counting,"male Sprague-Dawley rats, bone marrow","intravenous, 1 nmol, 72 h, mean of 3 animals",,tissue uptake,0.39 %ID/g
COc1cccc([C@]2(C)CCN(C[C@@H](NC(=O)[C@H]3Cc4ccc(O)cc4CN3)C(C)C)C[C@@H]2C)c1,,"rat, brain","intraperitoneal, 5 mg/kg",,AUCtotal,1850 ng·h/g
